# Measurements pooled from the literature.
# CDK3 with cyclin E: Cyclin-dependent kinase 3, with cyclin E (CDK3, Homo sapiens, UniProt Q00526)
# Sequence of UniProt Q00526 (whole entry, looked up): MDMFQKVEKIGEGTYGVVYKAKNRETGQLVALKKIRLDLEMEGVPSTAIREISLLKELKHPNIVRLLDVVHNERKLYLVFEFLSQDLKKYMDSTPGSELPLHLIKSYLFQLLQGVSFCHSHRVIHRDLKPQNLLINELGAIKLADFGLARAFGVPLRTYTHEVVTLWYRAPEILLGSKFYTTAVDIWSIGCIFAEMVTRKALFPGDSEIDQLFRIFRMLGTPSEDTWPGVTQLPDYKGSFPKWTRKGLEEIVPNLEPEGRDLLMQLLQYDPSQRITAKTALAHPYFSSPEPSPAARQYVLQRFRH
# CDK3: Cyclin-dependent kinase 3 (CDK3, Homo sapiens, UniProt Q00526)
Structure (SMILES),target,test,conditions,scale,quantity,result
Cc1cc(Nc2cc(N3CCN(C)CC3)nc(Sc3ccc(NC(=O)C4CC4)cc3)n2)[nH]n1,CDK3 with cyclin E,"kinase activity, KinaseProfiler","0.03 µM, species human",relative to: control,remaining activity,104%
COc1cc(N2CCN(C)CC2)ccc1Nc1nc(N)n(C(=S)NCc2c(Cl)cccc2Cl)n1,CDK3,enzyme activity,10 µM,relative to: control,remaining activity,19%
CCCOc1ccc(OC)c(F)c1C(=O)c1ccc(C(=O)N[C@@H]2CNC[C@H]2NC(=O)c2ccc3[nH]ncc3c2)cc1,CDK3 with cyclin E,enzyme activity,10 µM,,remaining activity,72%
C=CC(=O)N1CCC(COCC(=O)N2CCN(c3nc(-c4cnc(N)nc4C(F)F)nc(N4CCOC[C@@H]4C)n3)CC2)CC1,CDK3,KINOMEscan,1 µM,relative to: DMSO control,remaining binding,84%
CNc1ncc2c(/C=C/C(=O)N3CCC(OC)CC3)nn(Cc3cccc(C(F)(F)F)c3)c2n1,"Cyclin-dependent kinase 3, with cyclin C (CDK3, Homo sapiens, UniProt Q00526)","kinase activity, inhibitor",1 µM,relative to: untreated control,remaining activity,87%
COc1cc(F)ccc1-c1ncnc(Nc2cccc(C[S@](C)(=N)=O)c2)n1,CDK3 with cyclin E,kinase activity,"10 µM, with: 10 µM ATP",,remaining activity,10%
CCN(CC)c1ccc(C2=NNC(=O)CC2C)cc1[N+](=O)[O-] (stereo not drawn),CDK3 with cyclin E,"enzyme activity, inhibitor",10 µM,relative to: vehicle,remaining activity,98%
C[C@@H](c1ccc(-n2cnc3c(N)ncnc32)cc1)N1CCc2nn(C)c(Cc3ccccc3)c2C1=O,CDK3,KINOMEscan,0.1 µM,relative to: DMSO control,remaining binding,86%
C=CC(=O)N1CCC(C(=O)NCC(=O)N2CCN(c3nc(-c4cnc(N)nc4C(F)F)nc(N4CCOCC4)n3)CC2)CC1,CDK3,KINOMEscan,1 µM,,remaining binding,95%

# For quick reference, copied from above:
Structure (SMILES),target,test,conditions,scale,quantity,result
C=CC(=O)N1CCC(COCC(=O)N2CCN(c3nc(-c4cnc(N)nc4C(F)F)nc(N4CCOC[C@@H]4C)n3)CC2)CC1,CDK3,KINOMEscan,1 µM,relative to: DMSO control,remaining binding,84%
